Experimental data of several laboratories.
Parts stem from different laboratories: compare values within a part only. Substitutions count along the parent as printed.
Sequence of UniProt P54762 (whole entry, looked up): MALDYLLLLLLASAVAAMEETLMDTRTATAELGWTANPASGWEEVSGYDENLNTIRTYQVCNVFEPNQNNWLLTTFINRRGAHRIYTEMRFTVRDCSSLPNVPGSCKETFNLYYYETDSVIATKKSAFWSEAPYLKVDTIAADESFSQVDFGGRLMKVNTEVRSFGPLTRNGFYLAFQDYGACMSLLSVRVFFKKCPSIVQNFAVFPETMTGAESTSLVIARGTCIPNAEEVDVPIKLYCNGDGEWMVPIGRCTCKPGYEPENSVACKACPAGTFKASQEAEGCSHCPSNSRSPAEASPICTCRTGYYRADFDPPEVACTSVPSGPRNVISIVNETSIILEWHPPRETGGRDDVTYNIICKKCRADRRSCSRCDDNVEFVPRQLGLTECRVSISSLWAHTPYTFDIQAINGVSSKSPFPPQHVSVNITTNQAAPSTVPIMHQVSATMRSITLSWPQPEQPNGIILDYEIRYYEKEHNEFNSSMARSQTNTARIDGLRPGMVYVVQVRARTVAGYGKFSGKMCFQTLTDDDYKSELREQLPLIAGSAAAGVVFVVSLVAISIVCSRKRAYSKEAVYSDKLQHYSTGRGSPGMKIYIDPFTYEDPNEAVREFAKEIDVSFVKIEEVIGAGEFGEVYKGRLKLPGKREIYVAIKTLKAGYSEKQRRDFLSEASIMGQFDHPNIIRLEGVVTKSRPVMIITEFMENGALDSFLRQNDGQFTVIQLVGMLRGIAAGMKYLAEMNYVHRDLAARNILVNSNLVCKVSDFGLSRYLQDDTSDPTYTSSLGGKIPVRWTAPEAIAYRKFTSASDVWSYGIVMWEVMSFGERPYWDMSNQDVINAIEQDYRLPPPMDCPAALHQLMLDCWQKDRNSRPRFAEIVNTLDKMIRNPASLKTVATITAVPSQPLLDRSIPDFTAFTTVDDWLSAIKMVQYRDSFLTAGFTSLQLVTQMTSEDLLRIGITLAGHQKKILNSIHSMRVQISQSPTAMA

Set 1
Target: ABI1, truncated, D143A, DHFR fusion (Arabidopsis thaliana)
Method: DHFR PCA, deep sequencing
Matrix: yeast
Notes: methotrexate growth selection, single substitutions
Together with: (+)-ABA 0 µM
Baseline: wild-type fitted maximum
Reading: higher = stronger binding
Quantity: relative binding score
Parent: PYL1, truncated, DHFR fusion (Arabidopsis thaliana); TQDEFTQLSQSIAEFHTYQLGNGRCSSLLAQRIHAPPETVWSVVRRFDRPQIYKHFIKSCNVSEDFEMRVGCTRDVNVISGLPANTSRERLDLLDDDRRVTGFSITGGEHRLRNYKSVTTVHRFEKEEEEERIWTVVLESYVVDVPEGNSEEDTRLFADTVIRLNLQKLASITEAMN
Change = R132H; result = 25%
Change = E139H; result = 5.27%
Change = S104L; result = -5.31%
Change = R45S; result = 0.731%
Change = D159H; result = -6.45%
Change = E109C; result = -0.255%
Change = L164Y; result = -7.24%
Change = S117H; result = 25.7%

Set 2
Target: Protein C-ets-1 (ETS1, Homo sapiens, UniProt P14921, residues 1-441, full length assumed)
Method: protein-binding microarray
Molecule type: double-stranded DNA, one strand shown
Matrix: in vitro
Tested at: not given
Notes: k-mer, scored over probes, only values ≥0.25
Reading: higher = stronger binding
Quantity: E-score
Target sequence (chain): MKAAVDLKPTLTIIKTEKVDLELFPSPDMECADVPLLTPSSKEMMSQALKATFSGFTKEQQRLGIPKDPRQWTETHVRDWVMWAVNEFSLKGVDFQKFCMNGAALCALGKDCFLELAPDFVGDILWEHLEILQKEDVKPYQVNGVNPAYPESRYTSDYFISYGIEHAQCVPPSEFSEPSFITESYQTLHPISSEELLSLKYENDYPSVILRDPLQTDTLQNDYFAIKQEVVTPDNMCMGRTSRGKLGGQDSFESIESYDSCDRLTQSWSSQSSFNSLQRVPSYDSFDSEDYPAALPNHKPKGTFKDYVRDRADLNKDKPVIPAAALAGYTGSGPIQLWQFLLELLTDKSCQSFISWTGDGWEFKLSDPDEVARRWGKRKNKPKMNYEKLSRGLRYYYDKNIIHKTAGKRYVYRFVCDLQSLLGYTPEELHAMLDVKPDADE
Sequence = ACCGGAGA; result = 0.296
Sequence = CAACCGGA; result = 0.431
Sequence = CCCCGCCG; result = 0.261
Sequence = GGGACGGA; result = 0.359
Sequence = GGAAAACA; result = 0.312
Sequence = GAAGCATC; result = 0.321
Sequence = CGGATGAA; result = 0.404
Sequence = TCCGTTCA; result = 0.294

Set 3
Target: Prothrombin, mature alpha-thrombin (F2, Homo sapiens, UniProt P00734)
Method: aptamer microarray, sandwich
Molecule type: DNA with 2'F-ANA
Matrix: in vitro
Tested at: 200 nM
Notes: whole 15-mer aptamer, many near background
Together with: Cy3 exosite-II aptamer, 400 nM
Reading: higher = stronger binding
Quantity: mean fluorescence intensity
Sequence: GGTTGGTGTGGTTGG
Modification = 2'F-ANA at 3 4 5 9 12 14; result = 57.6 a.u.
Modification = 2'F-ANA at 1 3 11 13 15; result = 292 a.u.
Modification = 2'F-ANA at 1 2 3 5 6 7 11 12 13 14; result = 47.1 a.u.
Modification = 2'F-ANA at 1 2 3 4 5 10 11 12 13 14; result = 51.8 a.u.
Modification = 2'F-ANA at 1 5 6 7 8 9 10 13 14; result = 50.1 a.u.
Modification = 2'F-ANA at 1 2 3 4 5 6 7 8 9 10 12 14; result = 49.6 a.u.
Modification = 2'F-ANA at 1 2 6 7 10 15; result = 53 a.u.
Modification = 2'F-ANA at 1 6 7 14; result = 63.6 a.u.

Single results of other studies
Compound = C[C@@H](N)[C@H]1CC[C@H](C(=O)Nc2ccncc2)CC1; target = Ephrin type-B receptor 1 (EPHB1, Homo sapiens, UniProt P54762); assay = enzyme activity, inhibitor; setting = 0.5 µM; how to read = baseline: control; quantity = remaining activity; result = 95%

Some of these lines once more (set 2):
Sequence = GGAAAACA; result = 0.312
Sequence = GGGACGGA; result = 0.359
Sequence = CAACCGGA; result = 0.431
